Published values gathered from unrelated publications.
“And” joins repeats or separate records; there may be more than shown. Numbers after ± are the reported error.
rep main protease: Replicase polyprotein 1ab, main protease (rep, Severe acute respiratory syndrome coronavirus 2, UniProt P0DTD1)
rep papain-like protease: Replicase polyprotein 1ab, papain-like protease (rep, Severe acute respiratory syndrome coronavirus 2, UniProt P0DTD1)

SMILES	tested on	test	system	conditions	endpoint	result
Cc1ccccc1COn1nnc2ccc(S(=O)(=O)N(C)C)cc21	rep main protease	enzyme activity, inhibitor			IC50	> 100 µM
CCC(C(=O)Nc1cccc(F)c1)n1cccc2nc(SCc3ccc(F)cc3)nc1-2 (centres unmarked)	rep papain-like protease	enzyme activity, inhibitor			IC50	> 20 µM
CC(c1ccccc1Cl)N(C)Cc1cc(O)ccc1Cl (centres unmarked)	rep papain-like protease	deubiquitinase activity, inhibitor		with: Ub-AMC 2.5 µM	IC50	6.58 ± 1.68 µM
c1ccc([Se][Se]c2ccccc2)cc1	rep main protease	enzyme activity, inhibitor			IC50	1.87 µM
CCCCCCCCCCCCCCCc1cc(O)cc(O)c1	rep main protease	enzyme activity, inhibitor		with preincubation	IC50	> 100 µM
Cc1ccc(OCCN(C)C)cc1C(=O)N[C@H](C)c1cc(-c2cnn(C)c2)cc(-c2cnn(CC(F)(F)F)c2)c1	rep papain-like protease	enzyme activity, inhibitor, FRET			IC50	0.112 µM
C=CC(=O)NC(CC(=C)C)C(=O)N1CC(C(=O)NC(C(=O)NC)C(C)CC)C(c2cccc(C(F)(F)F)c2)C1 (centres unmarked)	rep main protease				IC50	61.6 µM
Cc1oc2nc1C(=O)N[C@](C)(C(=O)NCCc1ccccc1)c1nc(c(C)o1)C(=O)N[C@](C)(C(=O)NCCc1ccccc1)c1nc(c(C)o1)C(=O)N[C@]2(C)C(=O)NCCc1ccccc1	rep main protease	enzyme activity, inhibitor			IC50	7.35 µM and 7.3 µM
CCOC(=O)ONC(=O)CCc1ccccc1	rep main protease	enzyme activity, inhibitor, FRET			IC50	0.15 µM
CN(C)CCNC(=O)C[C@H](Cc1ccc(F)cc1)NC(=O)[C@@H](Cc1ccc(Cl)cc1Cl)NC(=O)[C@H](N)Cc1ccccc1C#N	rep main protease	enzyme activity, inhibitor, fluorescence			IC50	0.07 µM
CCCCCCCCCCCCCCCC(=O)N[C@@H](CCC(=O)NCCOCCOCCC(=O)NCCOCCOCCC(=O)NCCCC[C@H](NC(=O)[C@H](CC(=O)O)NC(=O)[C@H](CC(C)C)NC(=O)[C@H](Cc1ccc(O)cc1)NC(=O)[C@H](CCCCN)NC(=O)[C@H](CO)NC(=O)[C@H](Cc1ccc(O)cc1)NC(=O)[C@H](CC(=O)O)NC(=O)[C@H](CO)NC(=O)[C@@H](NC(=O)[C@H](Cc1ccccc1)NC(=O)[C@@H](NC(=O)CNC(=O)[C@H](CCC(N)=O)NC(=O)[C@@H](CO)NC(=O)[C@@H](N)Cc1c[nH]cn1)[C@@H](C)O)[C@@H](C)O)C(=O)N[C@@H](CCCNC(=N)N)C(=O)N[C@@H](CCCNC(=N)N)C(=O)N[C@@H](C)C(=O)N[C@@H](CCC(N)=O)C(=O)N[C@@H](CC(=O)O)C(=O)N[C@@H](Cc1ccccc1)C(=O)N[C@H](C(=O)N[C@@H](CCC(N)=O)C(=O)N[C@@H](Cc1c[nH]c2ccccc12)C(=O)N[C@@H](CC(C)C)C(=O)N[C@@H](CC(C)C)C(=O)N[C@@H](CC(N)=O)C(=O)N[C@H](C(=O)NCC(=O)NCC(=O)N1CCC[C@H]1C(=O)N[C@@H](CO)C(=O)N[C@@H](CO)C(=O)NCC(=O)N[C@@H](C)C(=O)N1CCC[C@H]1C(=O)N1CCC[C@H]1C(=O)N1CCC[C@H]1C(=O)N[C@@H](CO)C(N)=O)[C@@H](C)O)C(C)C)C(=O)O			rhesus monkey, male, plasma	subcutaneous, 20 µg/kg, day 1, toxicokinetics, mean	AUC(0-t)	136 ng·h/mL
O=C(Oc1cncc(Cl)c1)c1ccco1	rep main protease	enzyme activity, inhibitor			IC50	0.59 µM
COc1ccc(-c2cc(=O)c3c(O)cc(O)c(-c4cc(-c5cc(=O)c6c(O)cc(OC)cc6o5)ccc4OC)c3o2)cc1	rep main protease	enzyme activity, inhibitor		3 min preincubation	IC50	8.14 µM
CCC1c2ccsc2CCN1C(=O)Cn1cc(C(=O)O)nn1 (centres unmarked)	rep main protease	enzyme activity, inhibitor			IC50	> 100 µM
Oc1c(Br)cc(Br)c2cccnc12	rep papain-like protease	enzyme activity, inhibitor, fluorescence polarization			IC50	6 µM
Cc1ccc(C(=O)NCc2ccc(C)c(C(=O)N[C@H](C)c3cccc4ccccc34)c2)cc1Br	rep papain-like protease	enzyme activity, inhibitor			IC50	> 100 µM
COC(=O)C(NC(=O)CC(OC(C)=O)C(Cc1ccccc1)NC(=O)OC(C)(C)C)C(C)C (centres unmarked)	rep papain-like protease	enzyme activity, inhibitor, FRET			IC50	4.06 µM

For quick reference, copied from above:
SMILES	tested on	test	system	conditions	endpoint	result
COc1ccc(-c2cc(=O)c3c(O)cc(O)c(-c4cc(-c5cc(=O)c6c(O)cc(OC)cc6o5)ccc4OC)c3o2)cc1	rep main protease	enzyme activity, inhibitor		3 min preincubation	IC50	8.14 µM
CCC1c2ccsc2CCN1C(=O)Cn1cc(C(=O)O)nn1 (centres unmarked)	rep main protease	enzyme activity, inhibitor			IC50	> 100 µM
